Results of several laboratories.
Lines come from different studies, so protocols differ. ± gives the spread as reported.
Target: Cytochrome P450 2C19 (CYP2C19, Homo sapiens, UniProt P33261)
UniProt P33261, sequence (whole entry, looked up): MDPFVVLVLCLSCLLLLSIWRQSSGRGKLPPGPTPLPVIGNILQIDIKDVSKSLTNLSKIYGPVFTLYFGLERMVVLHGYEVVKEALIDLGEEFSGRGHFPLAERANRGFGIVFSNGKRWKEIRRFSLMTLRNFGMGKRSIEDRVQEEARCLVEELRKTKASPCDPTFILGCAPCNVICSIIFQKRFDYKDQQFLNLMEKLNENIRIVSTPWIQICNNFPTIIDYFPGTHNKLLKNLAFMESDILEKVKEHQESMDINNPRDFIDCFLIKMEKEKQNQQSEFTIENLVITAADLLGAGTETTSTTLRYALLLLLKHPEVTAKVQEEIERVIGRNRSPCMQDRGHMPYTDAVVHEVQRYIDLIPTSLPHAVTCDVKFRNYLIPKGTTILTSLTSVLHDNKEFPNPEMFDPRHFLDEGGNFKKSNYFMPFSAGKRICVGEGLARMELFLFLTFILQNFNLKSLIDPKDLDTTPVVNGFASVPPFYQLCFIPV

COC(=O)/C=C/C(=O)O — maximum time-dependent inhibition (human liver microsomes; up to 750 µM, 10 min, with: S-mephenytoin): 28%
CC(C)=CCc1cc(-c2coc3cc(O)ccc3c2=O)ccc1O — CLint (substrate; recombinant CYP2C19; pH 7.4): 63.4 µL/min/mg
O=c1[nH]c(=O)c(Cc2cccc(C(F)(F)F)c2)c([C@H]2CC[C@H](c3ccccc3)CC2)[nH]1 — AUC(0-last) (human, plasma; oral, 600 mg, day 10, geometric mean, with: fluvoxamine): 11700 ng·h/mL
Cc1noc(C)c1Cn1cc(N2C(=O)CN(Cc3cccc(O)c3)C2=O)cn1 — inhibition (enzyme activity, inhibitor, fluorescence; Sf9; 10 µM): 26%
COc1ccc2[nH]c([S+]([O-])Cc3ncc(C)c(OC)c3C)nc2c1 (stereo not drawn) — AUC(0-inf) (substrate; human, both sexes, plasma; oral, 20 mg, cocktail probe, control day): 1.2 ± 0.6 µM·h
O=C1Nc2ccc(Cl)cc2[C@@](C#CC2CC2)(C(F)(F)F)O1 — inhibition (enzyme activity, inhibitor; human, liver microsomes; 50 µM, pH 7.4): 10%
Cc1noc(C)c1Cn1cc(N2C(=O)N(Cc3cccc(O)c3)C(C)(C)C2=O)cn1 — inhibition (enzyme activity, inhibitor, fluorescence; Sf9; 10 µM): 11%
COc1cc(CCc2cnc3ccn(S(=O)(=O)c4c[nH]cn4)c3n2)cc(OC)c1 — inhibition (enzyme activity, inhibitor; human, liver microsomes; 10 µM, 20 min, pH 7.4): 99%
OC(Cn1cncn1)(Cn1cncn1)c1ccc(F)cc1F — inhibition (cotinine to COX formation, inhibitor; microsomes of overexpressing HEK293 cells; 10 µM, 30 min, pH 7.4, with: cotinine 1 mM): 55%
CN1Cc2c(Cl)cc(Cl)cc2[C@H](c2cccc(S(=O)(=O)NCCOCCOCCNC(=O)NCCCCNC(=O)NCCOCCOCCNS(=O)(=O)c3cccc([C@@H]4CN(C)Cc5c(Cl)cc(Cl)cc54)c3)c2)C1 — inhibition (enzyme activity, inhibitor; human, liver microsomes; 30 µM, 5 min): 32.9%
COc1cc(OC)c(Cl)c(CCc2cnc3ccn(S(=O)(=O)c4c[nH]cn4)c3n2)c1Cl — inhibition (enzyme activity, inhibitor; human, liver microsomes; 10 µM, 20 min, pH 7.4): 99%
CC1=N[C@]2(C(=O)CO)[C@@H](C[C@H]3[C@@H]4C[C@@H](O)C5=CC(=O)C=C[C@]5(C)[C@H]4[C@@H](O)C[C@@]32C)O1 — IC50 (enzyme activity, inhibitor; human, liver microsomes; with preincubation): 48 µM
